# Published values of several laboratories.
# Parts stem from different laboratories: compare values within a part only. Positions count from the first letter of the parent shown.

# Series 1 — method: aptamer microarray, sandwich; form: DNA with 2'F-ANA; sample: in vitro; tested at: 200 nM; added: Cy3 exosite-II aptamer, 400 nM; reading: higher = stronger binding; oligonucleotide: GGTTGGTGTGGTTGG
# Target: Prothrombin, mature alpha-thrombin (F2, Homo sapiens, UniProt P00734)
# Setting: whole 15-mer aptamer, many near background
Modification,mean fluorescence intensity [a.u.]
2'F-ANA at 1 2 6 7 8 10 11 12 14,55.4
2'F-ANA at 4 11 12 14 15,119
2'F-ANA at 1 8 9 11 14 15,55.9
2'F-ANA at 1 3 4 5 6 8 12 13 14,50.2
2'F-ANA at 1 2 3 6 8 13 14,73.5
2'F-ANA at 6 7 9 10 11 12 13 15,158
2'F-ANA at 1 2 9 10 12 13,67.6
2'F-ANA at 1 2 3 5 7 8 10 13 14 15,45.5
2'F-ANA at 1 2 3 4 5 7 10 11 12 15,48.1
2'F-ANA at 1 2 3 4 5 7 8 9 13 15,53.6
2'F-ANA at 2 3 5 7 11 12 13 15,114
2'F-ANA at 4 6 7 11 15,201

# Series 2 — method: protein binding microarray; form: double-stranded DNA, one strand shown; sample: in vitro; tested at: not given; baseline: not given; reading: higher = stronger binding
# Target: Histone acetyltransferase KAT6A, winged helix 2, GST fusion (KAT6A, Homo sapiens, UniProt Q92794, residues 85-181)
# Setting: 8-mer, flanks averaged, mean of 2 arrays, mostly near background
# Target sequence (chain): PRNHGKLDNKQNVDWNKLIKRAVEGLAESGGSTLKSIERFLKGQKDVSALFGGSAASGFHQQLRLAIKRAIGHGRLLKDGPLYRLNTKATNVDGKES
Oligonucleotide,E-score
TACTACGA,-0.162
TACCACCA,-0.111
GCCAACGC,0.152
AAAATACC,0.0296
CTTCCTCA,-0.0338
GGAGATCA,-0.112
ACCACAAT,-0.131
TATACCGA,-0.0234
AGCCCATC,-0.12
CGTGCGCC,-0.0088
ACGAAAAA,-0.0301
AGCTGAAA,0.037
CGACCTGC,0.217
CCACTAAC,-0.0914
ACTATACC,-0.138
ACAAACCA,0.126
GTACGAGA,-0.00394
CAGCGCCG,0.137
GATCGCCA,-0.0398

# Series 3 — target: CCND3, cyclin fold, Cln2 fusion (human); method: yeast growth competition, sequencing; sample: yeast; setting: weak parent motif; baseline: not given; reading: higher = stronger binding
# Starting sequence: E2F1 docking peptide (human); PPVKRRLDLETDH; partner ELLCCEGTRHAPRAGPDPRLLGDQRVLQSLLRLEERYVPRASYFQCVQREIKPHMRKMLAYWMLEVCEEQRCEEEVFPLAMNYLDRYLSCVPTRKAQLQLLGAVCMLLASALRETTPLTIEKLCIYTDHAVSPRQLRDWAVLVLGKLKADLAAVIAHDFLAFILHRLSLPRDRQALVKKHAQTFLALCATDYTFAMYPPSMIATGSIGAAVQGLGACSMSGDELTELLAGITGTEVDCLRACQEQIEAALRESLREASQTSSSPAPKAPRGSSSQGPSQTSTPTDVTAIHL
Change,normalised enrichment score
PPVKRRLDLTTDH [E10T],0.127
PPVKRFLDLETDH [R6F],0.162
PPVKRRLFLETDH [D8F],0.132
PPVKRRLDLYTDH [E10Y],0.0967
PPVKRRLDLETDY [H13Y],0.0807
PPVKRRADLETDH [L7A],0.107
PPVKRRHDLETDH [L7H],0.0775
PPVGRRLDLETDH [K4G],0.0945
PPVKRRLYLETDH [D8Y],0.0687
PCVKRRLDLETDH [P2C],0.182
PPVRRRLDLETDH [K4R],0.0593
PPYKRRLDLETDH [V3Y],0.153
PPVKRRLNLETDH [D8N],0.161
PPFKRRLDLETDH [V3F],0.157
PPVKRKLDLETDH [R6K],0.0186

# Series 4 — method: DHFR PCA, deep sequencing; sample: yeast; added: (+)-ABA 200 µM; baseline: wild-type fitted maximum; reading: higher = stronger binding
# Target: ABI1, truncated, D143A, DHFR fusion (Arabidopsis thaliana)
# Setting: methotrexate growth selection, single substitutions
# Starting sequence: PYL1, truncated, DHFR fusion (Arabidopsis thaliana); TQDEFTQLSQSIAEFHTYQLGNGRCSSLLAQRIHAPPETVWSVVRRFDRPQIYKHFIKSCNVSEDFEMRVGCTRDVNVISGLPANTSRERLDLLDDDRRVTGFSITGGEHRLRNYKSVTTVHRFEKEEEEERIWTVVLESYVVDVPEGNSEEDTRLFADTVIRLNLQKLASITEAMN
Change,relative binding score [%]
T6K,103
N77A,104
V161Q,15.8
N22F,99.8
E174F,64.7
L164H,99.1
Y115F,98.4
L94E,3.75
S80E,39.6

# Series 5 — method: RNA Bind-n-Seq; form: RNA; sample: in vitro; tested at: 1 µM; setting: whole 134-nt RNA, ends assumed; added: 150 mM KCl; baseline: input library; reading: higher = stronger binding
# Target: Ras GTPase-activating protein-binding protein 1, RRM domain (G3BP1, Homo sapiens, UniProt Q13283)
# UniProt Q13283, sequence (whole entry, looked up): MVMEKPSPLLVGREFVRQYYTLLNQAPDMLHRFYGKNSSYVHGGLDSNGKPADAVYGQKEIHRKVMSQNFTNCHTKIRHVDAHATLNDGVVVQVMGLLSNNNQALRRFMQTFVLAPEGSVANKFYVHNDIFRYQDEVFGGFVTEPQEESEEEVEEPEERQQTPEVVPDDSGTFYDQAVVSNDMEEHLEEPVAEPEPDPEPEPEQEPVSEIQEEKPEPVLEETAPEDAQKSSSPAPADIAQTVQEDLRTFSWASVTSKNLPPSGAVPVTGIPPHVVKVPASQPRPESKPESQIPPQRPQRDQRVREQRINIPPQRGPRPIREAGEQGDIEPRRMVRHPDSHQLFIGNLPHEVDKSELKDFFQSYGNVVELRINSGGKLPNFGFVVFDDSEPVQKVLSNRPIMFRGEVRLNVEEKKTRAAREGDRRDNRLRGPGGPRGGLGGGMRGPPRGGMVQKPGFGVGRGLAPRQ
# All sequences stand within: GGGAGUUCUACAGUCCGACGAUC … UGGAAUUCUCGGGUGUCAAGG
Oligonucleotide,log2 enrichment
ACCAUGCAGGUGGGCAUCUUUGGGAAGUGGGGCAAGGGGGGGAUAGGGAGGGGGGUAACACUUUGGGAACAGGUGGUCCAAGGUCGUUUC,0.917
CUCAAGUCCUGUGCUACACAUCGUAUGUACCGAAUCGGUUUGGUUUGGUUUGGAAAGUAUUAUGUUACGCCGUUCGGAUCUGCACUUCCA,-0.277
UGGGAGGUGGAUUUUGUUUAUUUUUUUAGCUCAUUUCCGGGGGUGGGAAUUUUUUUUUAAUAUGUGUCAUGAAUAAAGUUGUUUUUGAAA,1.29
UGGGAGGUGGAUUUUGUUUAUUUUUUUAGCUCAUUUCCAGGGGUGGGAAUUUUUUUUUAAUAUGUGUCAUGAAUAAAGUUGUUUGUGAAA,1.5
UGCACACCGCCUUGCACAUAGCAGAGGCUCCGGGCUCACUCCUUCCUGGUGGGAAAGGAAGAUGCCUGUCCUCUCCGUGGAAGACCCUGG,-0.475

# Series 6 — method: protein-binding microarray; form: double-stranded DNA, one strand shown; sample: in vitro; tested at: 250 nM; setting: 60-bp whole probe; added: salmon DNA 0.4 mg/ml; baseline: random background probes; reading: higher = stronger binding; all sequences stand within: GCCTAGCAC … GTCTTGATTCGCTTGACGCTGCTG
# Target: Interferon regulatory factor 7, full length, phosphomimetic (IRF7, Homo sapiens, UniProt Q92985, residues 1-503, S101K/S471D/S472D/S475D/S476D/S477D/S483D/S484D/S487D)
# UniProt Q92985, sequence (whole entry, unmodified, looked up): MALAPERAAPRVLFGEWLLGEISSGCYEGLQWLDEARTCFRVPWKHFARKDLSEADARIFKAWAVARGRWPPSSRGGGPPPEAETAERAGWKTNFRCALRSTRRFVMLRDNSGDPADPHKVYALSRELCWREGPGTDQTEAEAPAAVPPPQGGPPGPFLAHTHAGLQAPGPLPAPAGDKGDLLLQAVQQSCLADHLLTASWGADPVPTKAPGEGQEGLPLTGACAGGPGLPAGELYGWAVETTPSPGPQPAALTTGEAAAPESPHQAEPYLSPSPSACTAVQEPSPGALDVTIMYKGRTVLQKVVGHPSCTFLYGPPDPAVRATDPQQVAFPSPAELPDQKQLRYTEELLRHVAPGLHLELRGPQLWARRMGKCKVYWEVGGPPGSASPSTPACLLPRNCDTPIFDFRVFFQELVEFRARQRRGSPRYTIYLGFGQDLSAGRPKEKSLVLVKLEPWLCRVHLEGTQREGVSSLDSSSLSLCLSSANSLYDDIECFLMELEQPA
Oligonucleotide,log fluorescence
CACGGTTTCCTTTTCCTGACGTGCTAG,6.66 z-score
CTGGAGGTTGGGCAAGGCCCGTGCTAG,-1.13 z-score
TTAGGACTGGGGTATCGTTTAGTGCTA,0.406 z-score
TTAGATATCGAGTATCGATTAGTGCTA,0.678 z-score
GTCTTTGCAAAAGCTCCACCGTGCTAG,1.19 z-score
GACGGACTGGACGATCGGGACGTGCTA,-0.476 z-score
GACGGTATCGCTATCGGGACGTGCTAG,0.357 z-score
GACGGTCTGGGTTTCGGGACGTGCTAG,1.78 z-score
TTAGGACTGTTTCTCCTTTAGTGCTAG,2.52 z-score
AACGGTATCCTTATCCTGACGTGCTAG,0.354 z-score
TTAGATATCAGTATCGATTGGTGCTAG,1.05 z-score
TTGTAGATGCCTTTCTCTTGGTGCTAG,-0.25 z-score

# Series 7 — method: universal PBM; form: double-stranded DNA, one strand shown; sample: in vitro; tested at: not given; reading: higher = stronger binding
# Target: Sal-like protein 4, full length isoform B (SALL4, Homo sapiens, UniProt Q9UJQ4-2, residues 1-616)
# Setting: 8-mer, flanks averaged, mean of replicates
Oligonucleotide,E-score
CGATCGGC,-0.0207
ATTGCAGG,0.0747
CACGGTGA,-0.0799
GCGTAACA,0.0338
GTAAGCAA,0.157
CGTGCAAA,0.0921
GCGCAAAC,-0.196
ACTATCCC,-0.0886
AGAGGCCG,-0.299
ATACCCAG,-0.0343
CGAACGTA,0.0444
TAGAAAAA,0.178
CGTCTACC,-0.105
AGAAGGCG,-0.194
TGACTGAA,0.0256
CACGTTTC,-0.0988

# Some of these lines once more (series 4):
Change,relative binding score [%]
V161Q,15.8
L164H,99.1
S80E,39.6
N77A,104
Y115F,98.4
L94E,3.75
N22F,99.8
T6K,103
E174F,64.7
